# Experimental data of several laboratories.
# Parts stem from different laboratories: compare values within a part only.

# Block 1
# Target: Ras GTPase-activating protein-binding protein 1, full length (G3BP1, Homo sapiens, UniProt Q13283)
# Sequence of UniProt Q13283 (whole entry, looked up): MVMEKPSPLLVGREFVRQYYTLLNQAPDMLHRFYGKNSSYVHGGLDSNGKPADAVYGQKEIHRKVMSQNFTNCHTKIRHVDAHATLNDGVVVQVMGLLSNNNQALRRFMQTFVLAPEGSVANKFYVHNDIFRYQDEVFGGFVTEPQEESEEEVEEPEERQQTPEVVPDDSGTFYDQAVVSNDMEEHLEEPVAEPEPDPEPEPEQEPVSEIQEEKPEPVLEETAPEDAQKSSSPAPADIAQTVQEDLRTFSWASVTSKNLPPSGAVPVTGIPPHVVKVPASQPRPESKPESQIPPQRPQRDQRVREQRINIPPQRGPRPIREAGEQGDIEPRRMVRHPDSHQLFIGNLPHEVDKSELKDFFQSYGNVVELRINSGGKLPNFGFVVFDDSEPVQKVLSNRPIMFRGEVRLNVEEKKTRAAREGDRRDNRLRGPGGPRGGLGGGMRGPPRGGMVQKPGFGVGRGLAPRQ
# Method: RNA Bind-n-Seq
# Molecule type: RNA
# Medium: in vitro
# Tested at: 200 nM
# Notes: whole 134-nt RNA, ends assumed
# Together with: 150 mM KCl
# Reference: input library
# Direction: higher = stronger binding
# All sequences stand within: GGGAGUUCUACAGUCCGACGAUC … UGGAAUUCUCGGGUGUCAAGG
Strand,log2 enrichment
AGUCCUGUGCUACACAUCGUAUGUACCGAAUCGGUUUUUUUGGAAAGGUUUUUUUGGAAAGUAUUAUGUUACGCCGUUCGGAUCUGCACU,-1.66
CAAGUCCUGUGCUACACAUCGUAUGUACCGAAUCGGAAAAAAAGGUGGUUUUUGGAAAGUAUUAUGUUACGCCGUUCGGAUCUGCACUUC,-1.14
AAGUCCUGUGCUACACAUCGUAUGUACCGAAUCGGGAAAGGGAAAAAGGGAAAGGGAAAGUAUUAUGUUACGCCGUUCGGAUCUGCACUU,0.131
AGUCCUGUGCUACACAUCGUAUGUACCGAAUCGGGAAAAAGGGUUUUUGGGAAAGGGAAAGUAUUAUGUUACGCCGUUCGGAUCUGCACU,-0.431
AAGUCCUGUGCUACACAUCGUAUGUACCGAAUCGGAAAAAAAGGUUUUUUUGGUGGAAAGUAUUAUGUUACGCCGUUCGGAUCUGCACUU,-1.64
CUCAAGUCCUGUGCUACACAUCGUAUGUACCGAAUCGGUGGAGGAAAAAAAGGAAAGUAUUAUGUUACGCCGUUCGGAUCUGCACUUCCA,-0.481
UCCUGUGCUACACAUCGUAUGUACCGAAUCGGGGCCCCCCGGGGCCCCCCGGCCCCCCGGAAAGUAUUAUGUUACGCCGUUCGGAUCUGC,-0.011
UAUGCCACGCCCUUUGAGGACUCGAAGAUCAUGGUCUCUGACUUUGGACUCUCCAAAAUCCAGGCUGGGAACAUGCUAGGCACCGCCUGU,0.255
AAAAUUUCCAGUACCUUUGUCACAAUCCUAACACAUUAUCGGGAGCAGUGUCUUCCAUAAUGUAUAAAGAACAAGGUAGUUUUUACCUAC,-1.11

# Block 2
# Target: Interferon regulatory factor 7, full length, phosphomimetic (IRF7, Homo sapiens, UniProt Q92985, residues 1-503, S101K/S471D/S472D/S475D/S476D/S477D/S483D/S484D/S487D)
# Method: protein-binding microarray
# Molecule type: double-stranded DNA, one strand shown
# Medium: in vitro
# Tested at: 250 nM
# Notes: 60-bp whole probe
# Together with: salmon DNA 0.4 mg/ml
# Reference: random background probes
# Direction: higher = stronger binding
# All sequences stand within: GCCTAGCAC … GTCTTGATTCGCTTGACGCTGCTG
# Target sequence (chain): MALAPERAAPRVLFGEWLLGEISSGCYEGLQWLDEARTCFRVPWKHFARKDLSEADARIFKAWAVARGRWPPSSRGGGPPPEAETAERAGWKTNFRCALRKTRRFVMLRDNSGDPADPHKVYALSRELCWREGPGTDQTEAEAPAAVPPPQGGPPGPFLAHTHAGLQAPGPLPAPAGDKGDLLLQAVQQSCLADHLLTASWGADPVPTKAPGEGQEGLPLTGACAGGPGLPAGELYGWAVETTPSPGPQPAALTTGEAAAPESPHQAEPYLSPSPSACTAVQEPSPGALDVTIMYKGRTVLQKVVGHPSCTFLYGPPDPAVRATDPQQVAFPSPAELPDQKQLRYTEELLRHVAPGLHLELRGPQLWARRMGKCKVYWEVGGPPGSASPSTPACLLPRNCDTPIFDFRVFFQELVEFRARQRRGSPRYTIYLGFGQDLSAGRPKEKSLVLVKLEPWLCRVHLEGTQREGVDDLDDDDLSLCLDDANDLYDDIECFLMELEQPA
Strand,log fluorescence [z-score]
TCATGTGTATATATAATACTGTGCTAG,0.338
TTAGGACTTGGTATCGGTTAGTGCTAG,1.72
CTTTCTTTATGTACTCTCTCCGTGCTA,1.58
GGCGCTTTTTTTCCGAGTGAGTGCTAG,0.2
GACGGACCGCTTTTCCTGACGTGCTAG,0.878
TTAGATCTCAGCATCGATTAGTGCTAG,0.0264
ACCTCTCACGCATCTGAAACCGTGCTA,-0.11
GACGGTTTCCGACTGCTGACGTGCTAG,1.66
GACGATATCGGGTATCGATACGTGCTA,0.485
ATAGATATCGGGTATCGATTAGTGCTA,0.626
TACGATCTCAGACTGGAGACGTGCTAG,-0.352
TCAGTCTTGGTTCTCAGACTGTGCTAG,1.01
GATGGTATCGGTCTCGGGACGTGCTAG,0.817
GACGGTATCGGTCTAGGGACGTGCTAG,0.518
GACGAAGTGAGACTGGAGACGTGCTAG,-0.214
ACTAATTTCCATTTTCTAAAGTGCTAG,2.52
GACGGTTTCGGTTCCGGAACGTGCTAG,13.2
TTAGGTTTCGGTATCGCTTAGTGCTAG,10.2
TTAGGACTGGGTATCGGTTCGTGCTAG,2.06

# Block 3
# Target: POU domain, class 6, transcription factor 1, POU and homeodomain (POU6F1, Homo sapiens, UniProt Q14863, residues 311-611)
# Method: protein-binding microarray
# Molecule type: hairpin DNA
# Medium: in vitro
# Tested at: not given
# Notes: whole hairpin DNA, median over replicate spots
# Reference: not given
# Direction: higher = stronger binding
# All sequences stand within: GAGGCCAT … ATGGCCTCACACTCTT
# Construct (chain): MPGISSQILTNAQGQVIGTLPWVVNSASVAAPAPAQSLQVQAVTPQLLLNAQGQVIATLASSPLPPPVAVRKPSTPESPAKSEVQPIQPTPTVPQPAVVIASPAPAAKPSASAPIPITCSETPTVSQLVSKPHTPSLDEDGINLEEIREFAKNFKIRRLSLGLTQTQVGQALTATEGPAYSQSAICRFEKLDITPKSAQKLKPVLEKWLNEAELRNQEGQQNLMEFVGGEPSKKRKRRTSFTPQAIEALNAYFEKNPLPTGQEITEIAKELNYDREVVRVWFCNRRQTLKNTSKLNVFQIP
Strand,median fluorescence
CGTTAGGTGCCTCCTGGCACCTAACG (5mC at 9 33),354 a.u.
AACGAGGTGCCTCCTGGCACCTCGTT (5mC at 11),593 a.u.
AGTTAGGTGCCTCCTGGCACCTAACT (5mC at 33),407 a.u.
TATGAGGTGCCTCCTGGCACCTCATA,563 a.u.
AATTGGGTGCCTCCTGGCACCCAATT (5mC at 30),1210 a.u.
AATGAAGTGCCTCCTGGCACTTCATT,979 a.u.
AATTAGGTGCCTCCTGGCACCTAATT,2140 a.u.
AAGGAGGTGCCTCCTGGCACCTCCTT,446 a.u.

# Block 4
# Target: RNA binding protein fox-1 homolog 2, RRM domain, GST-SBP tag (RBFOX2, Homo sapiens, UniProt O43251-10, residues 100-194)
# Method: RNA Bind-n-Seq
# Molecule type: RNA
# Medium: in vitro
# Tested at: 365 nM
# Notes: natural RNA segment, single round, ends assumed
# Reference: no-protein control
# Direction: higher = stronger binding
# All sequences stand within: GGGAGUUCUACAGUCCGACGAUC … UGGAAUUCUCGGGUGCCAA
# Target sequence (chain): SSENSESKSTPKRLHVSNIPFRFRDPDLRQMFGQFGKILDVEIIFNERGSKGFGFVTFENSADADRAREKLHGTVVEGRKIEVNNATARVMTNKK
Strand,RBNS enrichment (R)
ACAGGAUGCUGCCUUGCCUGGUUUUGUUCUGAGCUGGUGAAUCCUUUGCUCUUUCAGCUAUUCUAGAGUGGCCUGUGAGCAAAUGAACUUCUCUCUCUCUCUCUCUCUCU,0.923
UGCACGGUGCAAGCUGUUGGUGGAUCUACCAUUCUGGGGUCUGGAGGACGGUGGCCCUCUUCUCACAGCUCCACUAGGCAGUGCCCCAGUAGGGACUCUGUGUGGGGGCU,0.238
UUGAUUUUUUUGAUGAUAGACUAUAUACACAGGCUGUUCCCGUUAUGUAAGUCAGUUCUUCAGGCUCAUUUGCUGUGCUGGUUUUACUAUUAUUUGUUUUCAAUGUAUAA,0.494
UUCUCAUCUGUGUUCCAGUAUCUACGGGAGGAGGAGCCCUUCUGACUGCGCCCUGAGGACGUGGACGCUGUUAGGAACCAAACUCUGUCCUGAGCUUCCUCUAGCUCACU,0.249
CUCCUUUGGGUAAGAGUCUGUUUGCCAUACAUCACUCUUCCACUGUGGCUUGGUAUUGUGCAGAUUACCUCUUUGAUAGGUCUAGUCACCUUGUUCAGUGCCUGUCUAAC,0.68
AUGUUCCUGUCACAGCUGUCGACUACCCCACGCUGCAGGAAAUCCAUUCAGAAAUGAGCUAACAGUCUCCAGUGUAGCAGGAGAGCCAGUCACUUCCCUCCCCAGGCCCC,0.341
CUUUAGAGGUGGUGGCAGCGGCAGCAGGUCAGAGCCACUUCUGGCGGUUUCCCUCCCCUUUUUAGUGCCCAUAGUUUUUGGAUCCUCCCUUGAGUUUUACCAGCACAAGC,0.456
UUCAUAAUUCAGGGGCUGUGGAUAGGAUUGUUCCUCUGUUUCCCUAAUCAUUCAUCUGUUCAUGUCUCCCUCUUGUGCCAGUCAGCCUAGGUUAUACAGAUGCCAUGCUC,0.77

# Some of these lines once more (block 1):
Strand,log2 enrichment
UAUGCCACGCCCUUUGAGGACUCGAAGAUCAUGGUCUCUGACUUUGGACUCUCCAAAAUCCAGGCUGGGAACAUGCUAGGCACCGCCUGU,0.255
AGUCCUGUGCUACACAUCGUAUGUACCGAAUCGGUUUUUUUGGAAAGGUUUUUUUGGAAAGUAUUAUGUUACGCCGUUCGGAUCUGCACU,-1.66
AAGUCCUGUGCUACACAUCGUAUGUACCGAAUCGGGAAAGGGAAAAAGGGAAAGGGAAAGUAUUAUGUUACGCCGUUCGGAUCUGCACUU,0.131
